Assay results pooled from the literature.
Parts stem from different laboratories: compare values within a part only. Substitutions count along the parent as printed.

Series 1 — technique: universal PBM; molecule type: double-stranded DNA, one strand shown; matrix: in vitro; concentration: 600 nM; direction: higher = stronger binding
Target: Sal-like protein 4, full length isoform A (SALL4, Homo sapiens, UniProt Q9UJQ4, residues 1-1053)
UniProt Q9UJQ4, sequence (whole entry, looked up): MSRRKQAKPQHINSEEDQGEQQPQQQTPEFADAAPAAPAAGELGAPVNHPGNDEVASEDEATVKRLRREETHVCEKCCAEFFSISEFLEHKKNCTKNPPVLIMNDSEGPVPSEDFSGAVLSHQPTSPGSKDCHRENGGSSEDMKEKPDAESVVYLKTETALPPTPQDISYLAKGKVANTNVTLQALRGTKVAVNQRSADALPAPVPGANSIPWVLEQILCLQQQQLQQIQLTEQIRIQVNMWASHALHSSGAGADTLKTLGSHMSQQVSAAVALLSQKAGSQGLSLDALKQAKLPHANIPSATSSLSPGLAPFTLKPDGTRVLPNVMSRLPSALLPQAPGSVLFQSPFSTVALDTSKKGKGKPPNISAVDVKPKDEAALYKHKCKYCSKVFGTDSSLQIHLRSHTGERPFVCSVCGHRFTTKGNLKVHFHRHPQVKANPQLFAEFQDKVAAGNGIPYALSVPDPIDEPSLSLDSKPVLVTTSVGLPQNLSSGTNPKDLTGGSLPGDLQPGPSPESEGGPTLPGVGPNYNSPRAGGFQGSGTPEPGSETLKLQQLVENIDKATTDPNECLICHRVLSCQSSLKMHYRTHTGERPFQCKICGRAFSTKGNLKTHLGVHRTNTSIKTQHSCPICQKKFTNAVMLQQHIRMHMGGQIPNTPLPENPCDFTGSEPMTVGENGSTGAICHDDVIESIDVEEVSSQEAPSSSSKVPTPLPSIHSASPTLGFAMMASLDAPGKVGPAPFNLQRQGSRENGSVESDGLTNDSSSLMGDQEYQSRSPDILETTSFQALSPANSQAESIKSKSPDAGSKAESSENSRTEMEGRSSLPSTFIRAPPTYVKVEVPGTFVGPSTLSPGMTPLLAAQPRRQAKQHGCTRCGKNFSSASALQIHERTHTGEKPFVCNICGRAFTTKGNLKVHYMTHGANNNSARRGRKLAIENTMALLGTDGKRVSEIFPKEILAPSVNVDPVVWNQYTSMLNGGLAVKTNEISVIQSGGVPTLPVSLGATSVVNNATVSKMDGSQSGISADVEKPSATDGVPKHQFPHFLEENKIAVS
Notes: 8-mer, flanks averaged, mean of replicates
Oligonucleotide	E-score
CCATGCCC	-0.276
CCTGTGAG	-0.104
ATCTAAAT	0.3
CGCCAACG	-0.289
CAACGCCG	-0.301
GGCTTAGA	-0.0378
CTCCCTTC	-0.303
TGGTACAA	0.183
AGTCGCCA	-0.317
AGATTGAA	0.226
CTCGCGTC	-0.152
ATCGTCCG	-0.157
AAGACGAA	0.125
AGTGGTCC	-0.219
AATTAAAC	0.287
CAACTGAC	-0.0661
ATGGGCGA	-0.229
TCACTCCA	-0.0523
AATCCCGA	0.0511
CACACCTC	-0.201
CTCCGACC	-0.284
GATATCAC	0.142
CAAACGGA	-0.141
AAAGAATA	0.349
AATAAACT	0.384

Series 2 — technique: RNA Bind-n-Seq; molecule type: RNA; matrix: in vitro; concentration: 200 nM; notes: whole 134-nt RNA, ends assumed; together with: 150 mM KCl; relative to: input library; direction: higher = stronger binding
Target: Ras GTPase-activating protein-binding protein 1, full length (G3BP1, Homo sapiens, UniProt Q13283)
UniProt Q13283, sequence (whole entry, looked up): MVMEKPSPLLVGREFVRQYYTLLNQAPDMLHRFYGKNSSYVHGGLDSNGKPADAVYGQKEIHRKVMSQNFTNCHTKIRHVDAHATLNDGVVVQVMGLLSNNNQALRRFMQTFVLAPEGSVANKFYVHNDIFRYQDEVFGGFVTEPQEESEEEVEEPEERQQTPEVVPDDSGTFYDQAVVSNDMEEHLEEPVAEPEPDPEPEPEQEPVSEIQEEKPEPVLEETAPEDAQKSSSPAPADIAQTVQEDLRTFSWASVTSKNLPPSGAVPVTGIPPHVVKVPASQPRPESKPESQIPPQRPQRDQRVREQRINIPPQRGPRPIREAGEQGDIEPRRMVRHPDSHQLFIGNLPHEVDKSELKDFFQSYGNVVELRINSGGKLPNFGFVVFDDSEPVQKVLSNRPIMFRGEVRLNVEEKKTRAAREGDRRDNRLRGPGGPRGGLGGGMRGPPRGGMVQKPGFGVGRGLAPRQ
Constant ends, left off below: GGGAGUUCUACAGUCCGACGAUC … UGGAAUUCUCGGGUGUCAAGG
Oligonucleotide	log2 enrichment
UCAAGUCCUGUGCUACACAUCGUAUGUACCGAAUCGGUUUUUGGUUUGGUUUGGAAAGUAUUAUGUUACGCCGUUCGGAUCUGCACUUCC	-0.939
UCCUGUGCUACACAUCGUAUGUACCGAAUCGGGGUUUGGGGUUUUUUUGGGGAAAGGGGAAAGUAUUAUGUUACGCCGUUCGGAUCUGCA	1.05
GCAGGAAGUAAAAACAAAUGGAAAUGCUUCGGAUAGUGGCAGGGGUGGGGGUUGCUAAUGAAAGGGUGGGAUGGGAGUGGGUAAAGAGUU	0.747
AGUCCUGUGCUACACAUCGUAUGUACCGAAUCGGGCCCCCGGGCCCCCGGCCCCCGGAAAGUAUUAUGUUACGCCGUUCGGAUCUGCACU	-0.502
CAAGUCCUGUGCUACACAUCGUAUGUACCGAAUCGGGGAGGGGUGGGGUUUGGGGAAAGUAUUAUGUUACGCCGUUCGGAUCUGCACUUC	1.26
CCUGUGCUACACAUCGUAUGUACCGAAUCGGGGAAAGGGGAAAAAGGGGAAAAAAAGGGGAAAGUAUUAUGUUACGCCGUUCGGAUCUGC	0.118
UGGGAGGUGGAUUUUGUUUAUUUUUUUAGCUCAUUUCCAGGGGUGGGAAUUCUUUUUUAAUAUGUGUCAUGAAUAAAGUUGUUUUUGAAA	0.0101
UGGCCCUGGUGGCAUGCGGGGAGGAAAAGGUGGCCUCAUGGAUCGUGGUGGUCCCGGUGGAAUGUUCAGAGGUGGCCGUGGUGGAGACAG	0.121
CAAGUCCUGUGCUACACAUCGUAUGUACCGAAUCGGCCCCGGCCCCGGGGCCCCGGAAAGUAUUAUGUUACGCCGUUCGGAUCUGCACUU	-1.21
ACCAUGCAGGUGGGCAUCUCUGGGAAGUGGGGCAAGGGGGGGAUAGGGAGGGGGGUAACACUUUGGGAACAGGUGGUCCCAGGUCGUUUC	1.27
CCUGUGCUACACAUCGUAUGUACCGAAUCGGGAAAAAAAGGGAAAAAGGGAAAAAAAGGGAAAGUAUUAUGUUACGCCGUUCGGAUCUGC	-0.807
CACAGACAACACGCACCCACACAGACACAGAGGGAAGGGGUUGGGAUGGGGACAGGGUGCACAGCAGGGCGGGGUAGGACCCCAGCACCU	1.9
UCAAGUCCUGUGCUACACAUCGUAUGUACCGAAUCGGCCCGGGCCCGGGCCCGGGAAAGUAUUAUGUUACGCCGUUCGGAUCUGCACUUC	-1.03
GCAGGAAGUAAAAACAAAUGGAAAUGCUUCGGAUAGUAGCAGGGGUGGGGGUUGCUAAGGAAAGGGUGGGAUGGGAGUGGGUAAAGAGUU	0.724

Series 3 — technique: protein-binding microarray; molecule type: double-stranded DNA, one strand shown; matrix: in vitro; concentration: 250 nM; notes: 60-bp whole probe; together with: salmon DNA 0.4 mg/ml; relative to: random background probes; direction: higher = stronger binding; constant ends, left off below: GCCTAGCAC … GTCTTGATTCGCTTGACGCTGCTG
Target: Interferon regulatory factor 7, full length, phosphomimetic (IRF7, Homo sapiens, UniProt Q92985, residues 1-503, S101K/S471D/S472D/S475D/S476D/S477D/S483D/S484D/S487D)
Target sequence (chain): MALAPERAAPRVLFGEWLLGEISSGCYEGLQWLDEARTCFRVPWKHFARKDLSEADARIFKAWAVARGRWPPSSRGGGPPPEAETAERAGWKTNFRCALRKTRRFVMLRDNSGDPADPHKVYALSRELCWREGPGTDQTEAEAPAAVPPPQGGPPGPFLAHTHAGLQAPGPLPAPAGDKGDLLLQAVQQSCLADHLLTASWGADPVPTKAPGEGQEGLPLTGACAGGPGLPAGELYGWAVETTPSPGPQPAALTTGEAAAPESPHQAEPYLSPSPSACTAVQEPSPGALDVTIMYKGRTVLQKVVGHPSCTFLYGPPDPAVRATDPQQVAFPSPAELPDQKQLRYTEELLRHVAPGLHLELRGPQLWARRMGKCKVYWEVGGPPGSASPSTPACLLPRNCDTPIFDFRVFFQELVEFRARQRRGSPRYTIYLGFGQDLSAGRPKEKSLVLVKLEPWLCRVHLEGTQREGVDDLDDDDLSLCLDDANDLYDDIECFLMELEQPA
Oligonucleotide	log fluorescence [z-score]
TTAGGACTGGGACTGGGATAGTGCTAG	-0.288
GACGATTTCAGTCTAGAGACGTGCTAG	0.336
AAGTTTCTCCTTTGTAAATAGTGCTAG	4.93
TTAGGACTGGGTCGCGGTTAGTGCTAG	0.45
GACGGTTCCGGTTTTGGGACGTGCTAG	4.33
TTAGGTTTCCTTCTCCTCTAGTGCTAG	2.51
GACGCTATCGGACTGGGGACGTGCTAG	-0.11
GTGTTCTGGGCAGCAGAGGGGTGCTAG	0.382
TTAGATTCCAGCTTCGATTAGTGCTAG	1.35
TCACTTTTTGCACTCTCACTGTGCTAG	0.739
TTAGGACTGGGGAATGGGTTAGTGCTA	-0.249
GACGGAGTGGGGTATCGGGACGTGCTA	-0.576
TCAATTATTGCTTCCTCACTGTGCTAG	0.627
TCAATCATTGTTTTCAGACTGTGCTAG	0.243
GACGGTATCCTTCTCCTAACGTGCTAG	0.491
TTAGTTTTCAGTATCGATTAGTGCTAG	2.49
GGGTGAATGTGTCTTAAATAGTGCTAG	-0.423
GACGGTTCCGGTCTCGGGACGTGCTAG	1.17
TTAGGTACCGGGACTGGGTTAGTGCTA	0.169
TTAGGTTTCCTTCTCGTTTAGTGCTAG	2.66
CACAGTTTGTAAATCTTTTTGTGCTAG	0.333
TTAGATATCGGACTGGGTTAGTGCTAG	0.194
TTAGGACTGGGGACTGGCTTAGTGCTA	-0.726
TAAGGTTCCGGTTTCGGTTAGTGCTAG	11.4
TTAGGACTGGGTTTCGGTTGGTGCTAG	7.33

Series 4 — target: NFE2, bZIP domain (human); technique: DHFR protein complementation; matrix: yeast; relative to: wild-type JUN-FOS pair; direction: higher = stronger binding
Notes: single substitutions, most at no-binding floor
Parent: JUN, bZIP domain (human); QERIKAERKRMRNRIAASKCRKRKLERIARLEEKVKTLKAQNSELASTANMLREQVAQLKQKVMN; partner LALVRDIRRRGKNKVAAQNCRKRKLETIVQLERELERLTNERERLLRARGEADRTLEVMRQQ
Substitution	binding fitness
L52R	-1.5 natural log
L52Y	-1.51 natural log
L59W	-1.46 natural log
E33W	-1.49 natural log
L45Q	-1.54 natural log
I28M	-1.18 natural log
E33G	-1.39 natural log
A40L	-1.51 natural log
V35Q	-1.53 natural log
L59H	-1.52 natural log

Series 5 — target: CCNA1, cyclin fold, Cln2 fusion (human); technique: yeast growth competition, sequencing; matrix: yeast; notes: weak parent motif; relative to: not given; direction: higher = stronger binding
Parent: PKN2 docking peptide (human); VSAVRKLDFSDTM; partner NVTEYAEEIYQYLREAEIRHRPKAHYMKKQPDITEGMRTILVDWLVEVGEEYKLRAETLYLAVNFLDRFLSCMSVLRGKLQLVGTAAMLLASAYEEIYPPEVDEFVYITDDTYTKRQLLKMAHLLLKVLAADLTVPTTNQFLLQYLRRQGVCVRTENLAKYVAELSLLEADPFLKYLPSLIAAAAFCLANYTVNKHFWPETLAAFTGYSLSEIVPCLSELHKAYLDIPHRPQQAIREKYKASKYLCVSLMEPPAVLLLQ
Substitution	normalised enrichment score
VSAVRPLDFSDTM [K6P]	-0.485
VSAVVKLDFSDTM [R5V]	0.147
VSAVRWLDFSDTM [K6W]	0.284
VSAVRKLDQSDTM [F9Q]	-0.0894
VIAVRKLDFSDTM [S2I]	0.734
VSAVRALDFSDTM [K6A]	0.622
VTAVRKLDFSDTM [S2T]	0.971
VSAVRKLCFSDTM [D8C]	0.269
VSAVRKNDFSDTM [L7N]	0.335
VSAVRILDFSDTM [K6I]	0.218
VSAVRKFDFSDTM [L7F]	-0.0286
VSAVRKLDFSDEM [T12E]	0.929
VSAVRKLFFSDTM [D8F]	-0.0545
VSSVRKLDFSDTM [A3S]	0.536
VSAVRKLDFSDRM [T12R]	0.977
VWAVRKLDFSDTM [S2W]	0.731
VSAVRKLDPSDTM [F9P]	0.262
VSAVRKSDFSDTM [L7S]	0.145
VSAVRKLDFSDWM [T12W]	0.719
VSAVRKLSFSDTM [D8S]	0.404
VSANRKLDFSDTM [V4N]	0.681
VSAVRKLDFSCTM [D11C]	0.828
VSAVRKLDNSDTM [F9N]	0.025
VSAVRKLDLSDTM [F9L]	0.0271
VSAVRKLDFSKTM [D11K]	1.02

Series 6 — technique: protein binding microarray; molecule type: double-stranded DNA, one strand shown; matrix: in vitro; concentration: not given; relative to: not given; direction: higher = stronger binding
Target: Histone acetyltransferase KAT6A, winged helix 2, GST fusion (KAT6A, Homo sapiens, UniProt Q92794, residues 85-181)
Notes: 8-mer, flanks averaged, mean of 2 arrays, mostly near background
Target sequence (chain): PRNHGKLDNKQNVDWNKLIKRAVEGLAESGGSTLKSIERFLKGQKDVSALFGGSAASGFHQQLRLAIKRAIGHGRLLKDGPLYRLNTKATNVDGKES
Oligonucleotide	E-score
CGATTTTA	-0.0744
GATAGTAC	-0.0492
TCGAATAA	-0.0348
CCCCAAAA	0.0859
AGTAGCGC	-0.0598
GCGTACCA	0.0575
CTCACTTC	-0.0613
AGTATAAC	0.0502
TAAGTTAA	0.0501
CCCCGCGA	0.163
TACTCCAA	0.0273
CTCTACAC	-0.109
ACGCCGAG	0.155
GATTCTCA	0.119
TGCGTGAA	0.132
CACACCTG	-0.031
CTCGCATC	0.0833
ACGAGAGG	0.0247
CACGAAGA	0.224
TGGAACCA	0.0383
AAGGGCCG	0.112
GGCTACTA	0.0363
CCGCTATA	-0.127

Some of these lines once more (series 6):
Oligonucleotide	E-score
GGCTACTA	0.0363
AAGGGCCG	0.112
CACACCTG	-0.031
CCCCAAAA	0.0859
ACGCCGAG	0.155
GATAGTAC	-0.0492
GCGTACCA	0.0575
TGCGTGAA	0.132
CTCGCATC	0.0833
GATTCTCA	0.119
AGTAGCGC	-0.0598
TAAGTTAA	0.0501
